Published values of several laboratories.
A part holds a random share of what one study measured.

Sample 1
Target: Sal-like protein 4, full length isoform A (SALL4, Homo sapiens, UniProt Q9UJQ4, residues 1-1053)
Chain of UniProt Q9UJQ4 (whole entry, looked up): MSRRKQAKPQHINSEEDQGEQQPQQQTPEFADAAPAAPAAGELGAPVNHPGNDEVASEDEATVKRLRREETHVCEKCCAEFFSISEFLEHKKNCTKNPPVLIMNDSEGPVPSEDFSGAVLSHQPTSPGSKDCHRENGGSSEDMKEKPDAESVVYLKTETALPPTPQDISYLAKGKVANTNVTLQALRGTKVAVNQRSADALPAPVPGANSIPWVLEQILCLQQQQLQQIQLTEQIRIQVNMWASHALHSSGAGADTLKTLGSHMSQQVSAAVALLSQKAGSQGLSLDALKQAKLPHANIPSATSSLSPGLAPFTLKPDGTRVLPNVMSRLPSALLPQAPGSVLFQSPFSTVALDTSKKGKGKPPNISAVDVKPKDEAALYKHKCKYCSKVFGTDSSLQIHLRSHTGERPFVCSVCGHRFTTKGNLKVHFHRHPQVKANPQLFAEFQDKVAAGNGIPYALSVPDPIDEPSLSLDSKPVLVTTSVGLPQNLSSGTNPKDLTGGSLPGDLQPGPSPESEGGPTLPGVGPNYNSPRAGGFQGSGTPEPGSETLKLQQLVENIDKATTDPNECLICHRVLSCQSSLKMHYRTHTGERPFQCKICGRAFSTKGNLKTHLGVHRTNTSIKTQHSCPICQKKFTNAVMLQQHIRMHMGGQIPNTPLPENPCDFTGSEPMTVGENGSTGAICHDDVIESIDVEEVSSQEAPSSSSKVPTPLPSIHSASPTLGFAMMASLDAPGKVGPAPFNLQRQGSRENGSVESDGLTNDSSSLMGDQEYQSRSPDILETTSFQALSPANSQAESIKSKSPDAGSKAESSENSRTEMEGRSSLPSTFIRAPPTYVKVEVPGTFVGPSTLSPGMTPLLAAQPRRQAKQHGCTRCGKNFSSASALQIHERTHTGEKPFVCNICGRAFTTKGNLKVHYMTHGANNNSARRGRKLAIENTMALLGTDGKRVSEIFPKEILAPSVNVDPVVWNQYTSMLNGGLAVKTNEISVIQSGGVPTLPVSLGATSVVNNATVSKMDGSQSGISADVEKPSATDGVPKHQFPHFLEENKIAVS
Method: universal PBM
Molecule type: double-stranded DNA, one strand shown
Sample: in vitro
Tested at: 600 nM
Setting: 8-mer, flanks averaged, mean of replicates
Reading: higher = stronger binding
Measurement: E-score
ACAACTGA: 0.175
AGCGTACA: 0.007
ACCGTGTC: -0.195
GCTGAACA: -0.0597

Sample 2
Target: Interferon regulatory factor 5, full length, phosphomimetic (IRF5, Homo sapiens, UniProt Q13568-2, residues 1-514, K96S/S451D/S453D/S456D/S462D)
Method: protein-binding microarray
Molecule type: double-stranded DNA, one strand shown
Sample: in vitro
Tested at: 250 nM
Setting: 60-bp whole probe
Together with: salmon DNA 0.4 mg/ml
Reference: random background probes
Reading: higher = stronger binding
Measurement: log fluorescence
GCCTAGCACTTAGGTCTCCTCCTGCTTTAGTGCTAGGTCTTGATTCGCTTGACGCTGCTG: -0.384 z-score
GCCTAGCACTCTCATTCCAATTCTTTTTATGTGCTAGTCTTGATTCGCTTGACGCTGCTG: 1.79 z-score
GCCTAGCACCCATTTTGGTTTTCTCTATTGGTGCTAGTCTTGATTCGCTTGACGCTGCTG: 1.79 z-score

Sample 3
Target: Histone acetyltransferase KAT6A, winged helix 1, GST fusion (KAT6A, Homo sapiens, UniProt Q92794, residues 1-85)
Method: protein binding microarray
Molecule type: double-stranded DNA, one strand shown
Sample: in vitro
Tested at: not given
Setting: 8-mer, flanks averaged, mean of 2 arrays, mostly near background
Reference: not given
Reading: higher = stronger binding
Measurement: E-score
Residues (chain): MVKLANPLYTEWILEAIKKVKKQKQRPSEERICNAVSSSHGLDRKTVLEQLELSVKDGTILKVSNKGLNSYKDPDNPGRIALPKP
TAGTTGGA: -0.144
AGCAAGTA: -0.0671
CAGTTAGA: -0.0674
AATTTGTG: -0.214

Single results of other studies
PhoQ, residues 284 288 289 292 302 303 NSMLDC — fold induction (PhoP, residues 12 14 15 18 19 NNFVT (Escherichia coli, UniProt P23836); Sort-seq, item: YFP reporter; E. coli; PhoQ-PhoP variant library, together with: 10 µM Mg2+; reference: high Mg2+ state, higher = stronger signaling): 9.96

Excerpt of the above (sample 1):
GCTGAACA: -0.0597
ACCGTGTC: -0.195
